Measured values pooled from the literature.
± gives the spread as reported.

CC(C)C[C@H](NC(=O)[C@H](CCC(=O)O)NC(=O)[C@H](CCC(=O)O)NC(=O)[C@H](CC(=O)O)NC(=O)[C@H](CCC(=O)O)NC(=O)[C@H](CCC(=O)O)NC(=O)[C@H](CCC(=O)O)NC(=O)[C@@H](N)CC(=O)O)C(=O)O gave a plasma concentration of 989 ng/mL (rat, plasma; subcutaneous, 11.0 mg/kg single dose, 165 min).
[123I]c1cncc(OC[C@@H]2CCN2)c1 has a tissue/plasma ratio of 14 (SPECT; human, head of caudate nucleus; intravenous bolus, 2.1 mCi; baseline: tissue over plasma).
With O[C@H]1CCCN[C@@H]1CCCn1cnc2c(Cl)c(Cl)ccc21 the MRT was 7.36 h (healthy human volunteers, plasma; oral, 25 mg, day 1, multiple ascending dose).
For COc1ccc(C[C@@H]2NC(=O)[C@H]([C@@H](C)O)NC(=O)[C@@H]3[C@@H]4CCN3C(=O)[C@@H]3Cc5cn(c6ccc(F)cc56)CCCCCCN(Cc5ccc(cc5)CCNC(=O)[C@]5(C)CCCN5C2=O)C(=O)CCC(=O)N[C@@H](C)C(=O)N[C@H](CNC(=O)CCCCC[N+](C)(C)C)C(=O)N[C@@H](Cc2cccc(c2)CNC(=O)CO4)C(=O)N3)cc1, “reduction of AUC, Cmax, C24” read 40 to 55% (human, plasma; oral, 10 mg, days 1 and 14, with: low-fat breakfast 30 min before; baseline: fasted).
For COc1ccc(-c2cc(=O)c3c(OC)c(OC)c(OC)c(OC)c3o2)cc1OC, “tissue to peel content ratio” read 0.248% (C57BL/6 mouse, male, colon; oral, 1% w/w in diet, 6 weeks, orange peel extract diet; baseline: content in orange peel).
With CCCCCCCCCC[N+](C)(C)CCCCCCCCCC the hepatic clearance was 2.47 mL/h/g liver (in vitro-in vivo extrapolation; human).
CC(=O)N[C@H](CCCCNC(=O)C(C)F)C(=O)N[C@@H](CS)C(=O)N[C@@H](CS)C(=O)N[C@@H](CCC(=O)O)C(=O)N[C@@H](Cc1c[nH]cn1)C(=O)N[C@H](Cc1ccccc1)C(=O)N[C@@H](CCCNC(=N)N)C(=O)N[C@@H](Cc1c[nH]c2ccccc12)C(=O)N[C@@H](CS)C(=O)N[C@@H](CCCNC(=N)N)C(=O)N1CCC[C@H]1C(=O)N[C@H](C(N)=O)C(C)C (stereo partly drawn) [fluorine-18 labelled] has a tissue uptake of 0.33 ± 0.11 %ID/g (C57BL/6 mice, male, B16-F10 tumour, muscle; intravenous, 1 h).
For CC[C@H](C)C(=O)O[C@H]1C[C@H](O)C=C2C=C[C@H](C)[C@H](CC[C@@H](O)C[C@@H](O)CC(=O)O)[C@H]21, the AUC was 86 ng·h/mL (healthy volunteers, plasma; oral, dose not given, with: 2D regimen).
CN[C@@](C)(C[18F])C(=O)O has a tracer uptake of 16 %ID/g (mouse, pancreas; 2 h, tumour-bearing).
CCc1cc(O)ccc1-c1ccc2c(-c3nc4c([nH]3)CN(C(C)C)[C@H](C(=O)N3CC(N(C)C)C3)C4)n[nH]c2c1 gave a t1/2 of 24.6 h (human, plasma; inhalation, 3 mg, single dose, geometric mean).
The trough concentration of CCCCCOc1ccc(-c2ccc(-c3ccc(C(=O)N[C@H]4C[C@@H](O)[C@@H](O)NC(=O)[C@@H]5[C@@H](O)[C@@H](C)CN5C(=O)[C@H]([C@@H](C)O)NC(=O)[C@H]([C@H](O)[C@@H](O)c5ccc(O)cc5)NC(=O)[C@@H]5C[C@@H](O)CN5C(=O)[C@H]([C@@H](C)O)NC4=O)cc3)cc2)cc1 is reported as 2300 ng/mL (human infants, plasma; intravenous, 3 mg/kg loading dose, 24 h).
CC(C)C[C@H](NC(=O)[C@H](C)NC(=O)[C@H](Cc1c[nH]cn1)NC(=O)[C@H](CO)NC(=O)[C@H](CCCCN)NC(=O)[C@H](Cc1ccccc1)NC(=O)CNC(=O)[C@@H](N)CC(N)=O)C(=O)N[C@@H](CCC(N)=O)C(=O)N[C@@H](CC(C)C)C(=O)N[C@@H](CC(N)=O)C(=O)N[C@@H](CC(N)=O)C(=O)N[C@@H](CCCNC(=N)N)C(=O)N[C@@H](CCC(N)=O)C(=O)O — result for “change in serum concentration”: -55.5 ± 18% (LC-MS/MS; human serum; concentration not given, 4 h, room temperature, tube without gel separator; baseline: initial concentration).

Some of these lines once more:
[123I]c1cncc(OC[C@@H]2CCN2)c1 has a tissue/plasma ratio of 14 (SPECT; human, head of caudate nucleus; intravenous bolus, 2.1 mCi; baseline: tissue over plasma).
